Experimental data pooled from the literature.
Protocols differ between the studies behind these lines. Values joined by “and” are separate records of one study, mostly repeats; a detail may differ. ± gives the spread as reported.
Chain of UniProt P61823 (whole entry, looked up): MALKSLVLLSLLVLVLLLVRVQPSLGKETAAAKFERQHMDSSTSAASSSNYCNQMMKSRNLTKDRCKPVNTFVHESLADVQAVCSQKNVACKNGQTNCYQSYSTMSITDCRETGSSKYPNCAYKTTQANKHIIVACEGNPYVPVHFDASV
Chain of UniProt P09936 (whole entry, looked up): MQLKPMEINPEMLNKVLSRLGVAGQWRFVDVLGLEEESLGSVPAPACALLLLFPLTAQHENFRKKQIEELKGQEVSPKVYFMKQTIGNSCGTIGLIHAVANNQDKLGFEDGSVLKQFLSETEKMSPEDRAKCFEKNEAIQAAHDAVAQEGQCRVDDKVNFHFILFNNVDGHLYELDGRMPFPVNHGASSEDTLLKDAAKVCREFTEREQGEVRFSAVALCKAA

Compound | tested on | assay | test system | setting | how to read | measurement | value
CC(C)[C@H](NC(=O)[C@H](Cc1ccc(O)cc1)NC(=O)[C@H](Cc1ccc(O)cc1)NC(=O)[C@@H]1CCCN1C(=O)[C@H](CCC(=O)O)NC(=O)[C@H](CCC(=O)O)NC(=O)[C@H](Cc1c[nH]c2ccccc12)NC(=O)[C@@H]1CCCN1C(=O)[C@@H](NC(=O)[C@H](CCC(N)=O)NC(=O)c1ccc2c(c1)C(=O)OC21c2ccc(O)cc2Oc2cc(O)ccc21)C(C)C)C(=O)N[C@H](C(=O)N[C@@H](CCCCN)C(=O)N[C@@H](CCCCN)C(=O)N[C@@H](CO)C(=O)N[C@@H](CO)C(=O)NCC(=O)NCC(N)=O)C(C)C | – | – | human, plasma | intravenous infusion, 400 mg, 0.08333 h after infusion start | – | plasma concentration | 215 ng/mL and 1760 ng/mL
c1coc(-c2n[nH]cc2-c2ccnc3ccccc23)c1 | MKK2 (Candida albicans) | kinase binding, MIB/MS competition | Candida albicans lysate | 10 µM | baseline: DMSO | log2 fold change | -0.04
CC(C)C[C@H](NC(=O)C[C@H](O)[C@H](CC(C)C)NC(=O)[C@H](Cc1c[nH]cn1)NC(=O)CNC(=O)[C@@H](NC(=O)[C@H](C)NC(=O)[C@H](Cc1c[nH]c2ccccc12)NC(=O)[C@H](CCC(N)=O)NC(=O)[C@@H](Cc1ccccc1)NC(=O)COCCOCCNC(=O)CCC(C(=O)O)N1CCN(CC(=O)O)CCN(CC(=O)O)CCN(CC(=O)O)CC1)C(C)C)C(N)=O (stereo partly shown) [lutetium-177 labelled] | – | – | BALB/c nu/nu mice, kidneys | intravenous, 100 pmol, 1 h, added: PA 300 µg | – | tissue uptake | 4.2 ± 0.6 %ID/g
CC(C)NCC(O)c1ccc(O)c(O)c1 (stereo not shown) | – | – | ventricular cardiomyocytes, C57BL/6 mouse | dose not given, 0.196 s | – | sarcomere length | 1.49 µm
Nc1ccn([C@@H]2O[C@H](COP(=O)(O)OP(=O)(O)O)[C@@H](O)[C@H]2O)c(=O)n1 | RNASE1 (Bos taurus, UniProt P61823) | native MS, single-point | – | 0.5 µM | – | Kd | 3.8 ± 0.1 µM
COC(=O)C1=C(C)NC(C)=C(C(=O)OC(C)(C)CN(C)CCC(c2ccccc2)c2ccccc2)C1c1cccc([N+](=O)[O-])c1 (stereo not shown) | Toxoplasma gondii | parasite growth | HFF, bradyzoite, alkaline-induced | – | – | EC90 | 17.4 µM
OC(C#Cc1ccc(F)c(F)c1)c1ccccc1 (stereo not shown) | Pseudomonas aeruginosa | static biofilm | PA14 | 10 µM, 24 h, static | baseline: DMSO | biofilm formation | 78%
C[n+]1cc2c3c(ccc2c2ccc4cc5c(cc4c21)OCO5)OCO3 | Toxoplasma gondii | parasite growth | HFF, bradyzoite, glutamine-induced | – | – | EC90 | 1.08 µM
Oc1ccccc1-c1n[nH]cc1-c1ccnc2ccccc12 | VPS15 (Candida albicans) | kinase binding, MIB/MS competition | Candida albicans lysate | 10 µM | baseline: DMSO | log2 fold change | 0.25
Cn1cc(-c2ccc(-c3cncc(Cl)c3N3CCC4(CCNC4=O)CC3)cc2)cn1 | COLO 205 | gene expression, microarray, item: HIST1H4J mRNA | – | concentration not given, 2 h | baseline: untreated cells | log2 fold change | -2.46
O=C(CCl)N1N=C(c2cccc(F)c2)CC1c1cccs1 (stereo not shown) | UCHL1 (Homo sapiens, UniProt P09936) | covalent, intact protein LC-MS | – | 12.5 µM | – | labelling | 19.7%
O=C(O[C@]12C[C@H]3C[C@H](C[C@H](C3)C1)C2)c1ccc(NCc2cc(O)ccc2O)cc1 | Toxoplasma gondii | parasite growth | HFF, bradyzoite, alkaline-induced | – | – | EC90 | 1320 µM
OC(CCN1CCCCC1)(c1ccccc1)C1CC2C=CC1C2 (stereo not shown) | – | resting-state EEG | healthy elderly humans | oral, 4 mg, eyes open, LS mean | baseline: baseline | change, Gamma EEG power, in O2-Pz | 1.9%

Some of these lines once more:
Compound | tested on | assay | test system | setting | how to read | measurement | value
C[n+]1cc2c3c(ccc2c2ccc4cc5c(cc4c21)OCO5)OCO3 | Toxoplasma gondii | parasite growth | HFF, bradyzoite, glutamine-induced | – | – | EC90 | 1.08 µM
